Experimental data from different studies.
Every numbered part comes from another study and shows a few of its results, in no order. “And” joins repeats or separate records; there may be more than shown.
Sequence of UniProt Q01959 (whole entry, looked up): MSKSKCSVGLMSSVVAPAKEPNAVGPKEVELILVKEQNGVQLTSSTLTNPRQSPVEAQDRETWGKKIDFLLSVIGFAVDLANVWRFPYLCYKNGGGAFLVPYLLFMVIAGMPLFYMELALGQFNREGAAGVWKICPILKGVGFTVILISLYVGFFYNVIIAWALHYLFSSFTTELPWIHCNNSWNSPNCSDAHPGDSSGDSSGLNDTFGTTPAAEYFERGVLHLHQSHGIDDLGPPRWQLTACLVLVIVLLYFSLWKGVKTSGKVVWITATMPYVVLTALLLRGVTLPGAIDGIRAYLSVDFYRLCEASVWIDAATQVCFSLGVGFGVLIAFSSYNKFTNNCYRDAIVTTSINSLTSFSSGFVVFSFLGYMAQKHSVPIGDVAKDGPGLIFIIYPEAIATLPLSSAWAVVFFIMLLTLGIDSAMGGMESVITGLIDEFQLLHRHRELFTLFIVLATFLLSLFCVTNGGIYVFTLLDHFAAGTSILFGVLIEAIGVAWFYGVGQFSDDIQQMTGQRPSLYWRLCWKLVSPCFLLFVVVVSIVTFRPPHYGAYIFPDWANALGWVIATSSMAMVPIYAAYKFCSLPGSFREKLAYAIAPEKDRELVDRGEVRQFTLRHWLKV

Set 1
Species: human
Sample: microsomes or S9
Concentration: 2 µM
Time: 0.5 h
| Compound | remaining compound |
| --- | --- |
| CC(=O)Nc1nc2ccc(-c3nn(C(C)C)c4nc(N)ncc34)cc2s1 | 66.9% |
| COc1ccccc1CNc1ccc2[nH]c(=O)[nH]c2c1 | > 100% |
| Cn1c2nc3ccccc3nc2c2c(=O)n(Cc3ccccc3)cnc21 | 31% |
| O=C(CCCc1c[nH]c2ccccc12)Nc1cccc(C(=O)O)c1 | > 100% |
| CCOc1ccc(Nc2c(-c3cccc(O)c3)nc3ccccn23)cc1 | 45% |
| O=C(c1nccc2ccccc12)N1CCc2cc(-c3ccno3)ccc21 | 4.12% |
| Cc1ncsc1CC[S+]([O-])c1ccc(S(C)(=O)=O)cc1 (stereo not shown) | 75.3% |
| c1ccc(CN2CCc3nc(N4CCCC4)nc(N4CCn5cnnc5C4)c3C2)cc1 | 23% |

Set 2
Cell line: mouse MPNST tumor cells
Technique: high-content immunofluorescence imaging
Refers to: nuclear SOX9
Concentration: 10 µM
Time: 12 h
Setting: mean of 2 replicates
Reference: DMSO control
Direction: higher = more nuclear SOX9
| SMILES | nuclear SOX9 intensity |
| --- | --- |
| CCOc1cc2ncc(C#N)c(Nc3ccc(OCc4cccc(F)c4)c(Cl)c3)c2cc1NC(=O)/C=C/CN(C)C | 97.4 % of DMSO |
| C[C@]12CC[C@@H]3c4ccc(OS(=O)(=O)O)cc4CC[C@H]3[C@@H]1CCC2=O | 94.3 % of DMSO |
| CCCN1CCC[C@@H](c2cccc(S(C)(=O)=O)c2)C1 | 93 % of DMSO |
| CCC(=O)O[C@]1(C(=O)SCF)[C@H](C)C[C@H]2[C@@H]3C[C@H](F)C4=CC(=O)C=C[C@]4(C)[C@@]3(F)[C@@H](O)C[C@@]21C | 90.4 % of DMSO and 80.8 % of DMSO |
| CCC(C)(CN(C)C)OC(=O)c1ccccc1 (stereo not shown) | 145 % of DMSO |
| CCC(Cc1c(I)cc(I)c(N)c1I)C(=O)O (stereo not shown) | 85.3 % of DMSO |
| CCCCN(CC)c1nc(C)nc2c1c(C)c(C)n2-c1c(C)cc(C)cc1C | 108 % of DMSO |
| CC1=C(CC(=O)O)c2cc(F)ccc2/C1=C\c1ccc([S+](C)[O-])cc1 (stereo not shown) | 90.7 % of DMSO |

Set 3
Organism: Sarcocystis neurona
Observed: parasite growth
Concentration: 10 µM
Time: 96 h
Setting: first screen
Reference: untreated
| Compound | log2 fold change |
| --- | --- |
| CO[C@H]1/C=C/O[C@@]2(C)Oc3c(C)c(O)c4c(O)c(c5c(nc6cc(C)ccn65)c4c3C2=O)NC(=O)/C(C)=C\C=C\[C@H](C)[C@H](O)[C@@H](C)[C@@H](O)[C@@H](C)[C@H](OC(C)=O)[C@@H]1C | 0.07 |
| CCCCC(=O)N(Cc1ccc(-c2ccccc2-c2nnn[nH]2)cc1)[C@H](C(=O)O)C(C)C | -0.14 |
| COc1cc(CNC(=O)CCCC/C=C\C(C)C)ccc1O | 0.2 |
| Cc1ccc(Cl)c(Nc2ccccc2C(=O)O)c1Cl | 0.06 |
| Cc1ncc([N+](=O)[O-])n1CC(C)O (stereo not shown) | 0.22 |
| Cc1c(OCC(F)(F)F)ccnc1C[S+]([O-])c1nc2ccccc2[nH]1 (stereo not shown) | 0.56 |
| O=c1[nH]c(=O)n(C2CCCO2)cc1F (stereo not shown) | -0.23 |
| CCc1ccc(CCOc2ccc(CC3SC(=O)NC3=O)cc2)nc1 (stereo not shown) | 0.39 |

Mixed results
| Structure (SMILES) | target | observed | technique | concentration | measurement | result |
| --- | --- | --- | --- | --- | --- | --- |
| N#CN1CC[C@H](C(=O)Nc2nc3c(s2)CN(C(=O)CN=[N+]=[N-])CC3)C1 | Sodium-dependent dopamine transporter (SLC6A3, Homo sapiens, UniProt Q01959) | binding | radioligand binding | 10 µM | inhibition | -2.33% |

Excerpt of the above (set 3):
| Compound | log2 fold change |
| --- | --- |
| COc1cc(CNC(=O)CCCC/C=C\C(C)C)ccc1O | 0.2 |
| Cc1ccc(Cl)c(Nc2ccccc2C(=O)O)c1Cl | 0.06 |
| Cc1ncc([N+](=O)[O-])n1CC(C)O (stereo not shown) | 0.22 |
